Values quoted from earlier work as cited in several papers.
Each numbered part shows a few of the values that one paper quotes.

Set 1 — Structure (SMILES): CN(C)CC/C=C1/c2ccccc2Sc2ccc(Cl)cc21; cell line: MCF7; method: microarray; concentration: concentration not given; baseline: DMSO
For refers to: ZNHIT2 mRNA: “log2 fold change” read 1.
refers to: SLC38A2 mRNA — “log2 fold change”: 1.22.
refers to: TRAF5 mRNA — “log2 fold change”: 1.01.

Set 2 — organism: Cryptosporidium parvum; concentration: concentration not given
`CCCc1cc(=O)[nH]c(=S)[nH]1`: activity “inactive”.
Under activity, `O=C(O)c1cccnc1` is recorded as “inactive”.
For `NNCCc1ccccc1`, activity read “inactive”.
Under activity, `CN1CCC[C@H]1c1cccnc1` is recorded as “inactive”.
For `CCCN[C@H]1CCc2nc(N)sc2C1`, activity read “inactive”.
`COC(=O)[C@H](c1ccccc1Cl)N1CCc2sccc2C1` — result for activity: “inactive”.
`Clc1cccc(Cl)c1N=C1NCCN1` — result for activity: “inactive”.
`Nc1nc2ccc(Cl)cc2c2nc(-c3ccco3)nn12`: activity “inactive”.
For `Clc1ccccc1CN1CCc2sccc2C1`, activity read “inactive”.
`O=C1CN(/N=C/c2ccc([N+](=O)[O-])o2)C(=O)N1`: activity “inactive”.
Under activity, `OC(CCN1CCCCC1)(c1ccccc1)C1CCCCC1` (stereo not drawn) is recorded as “inactive”.
`Brc1c(NC2=NCCN2)ccc2nccnc12` — result for activity: “inactive”.
Under activity, `COc1ccc2cc([C@H](C)C(=O)O)ccc2c1` is recorded as “inactive”.
`COc1cc(Cc2cnc(N)nc2N)cc(OC)c1OC` — result for activity: “inactive”.
Under activity, `OCCOCCN1CCN(C2=Nc3ccccc3Sc3ccccc32)CC1` is recorded as “inactive”.

Set 3 — target: dopamine transporter
For `COc1cc(N)c(Cl)cc1C(=O)NC1CCN(CCCOc2ccc(F)cc2)CC1OC` (stereo not drawn), the IC50 was over 10 µM.
`N#Cc1ccc(C(c2ccc(C#N)cc2)n2cncn2)cc1` has an IC50 of over 10 µM.
The IC50 of `CCCC(=O)Nc1ccc(OCC(O)CNC(C)C)c(C(C)=O)c1` (stereo not drawn) is reported as over 10 µM.

Mixed results
`COCC(=O)NCCCCCC(=O)N[C@H](C(=O)N1C[C@H](O)C[C@H]1C(=O)NCc1ccc(-c2scnc2C)cc1)C(C)(C)C`: “log permeability (Pe)” -7.15 (PAMPA).
`O=C(Nc1ccc(Cl)c(Cl)c1)Nc1ccc(Cl)c(Cl)c1` has an IC50 of 0.8 µM (Schistosoma mansoni; ex vivo worms).
`Cc1ncsc1-c1ccc(CNC(=O)[C@@H]2C[C@@H](O)CN2C(=O)[C@@H](NC(=O)CCCCCOC(=O)CC(c2ccccc2)c2ccccc2)C(C)(C)C)cc1`: “log permeability (Pe)” -6.22 (PAMPA).
`CCNC(=O)c1cc2c(N3CCOC[C@H]3C)ccnc2n1C` gave an IC50 of over 20 µM (NUDT1; biochemical).
`Cc1ncsc1-c1ccc(CNC(=O)[C@@H]2C[C@@H](O)CN2C(=O)[C@@H](NC(=O)CCCCCNC(=O)CC23C[C@H]4C[C@@H](C2)C[C@@H](C3)C4)C(C)(C)C)cc1` — result for “log permeability (Pe)”: -5.17 (PAMPA).
The IC50 of `O=S(=O)(NC1CCC(c2cc(F)ccc2F)(S(=O)(=O)c2ccc(Cl)cc2)CC1)C(F)(F)F` (stereo not drawn) is reported as 0.213 µM (SLC18A2).
With `COC(=O)N1CCN(C(=N)c2cccc(NC(=O)Nc3ccc(S(=O)(=O)NCc4ccc(S(N)(=O)=O)cc4)cc3)c2)CC1` the IC50 was 0.0031 µM (Plasmodium falciparum; parasite growth; Dd2).
For `CNC(=O)Nc1ccc2c(c1)C1(CC2)OC(=O)N(CC(=O)N(Cc2ccc(F)cc2)[C@@H](C)C(F)(F)F)C1=O` (single isomer, unassigned), the IC50 was over 10 µM (EP300 and CREBBP; cell-based).
With `CCCCOc1cc(C(=O)NCCN(CC)CC)c2ccccc2n1` the logP was over 3.

A few entries again (set 3):
For `COc1cc(N)c(Cl)cc1C(=O)NC1CCN(CCCOc2ccc(F)cc2)CC1OC` (stereo not drawn), the IC50 was over 10 µM.
`N#Cc1ccc(C(c2ccc(C#N)cc2)n2cncn2)cc1` has an IC50 of over 10 µM.
The IC50 of `CCCC(=O)Nc1ccc(OCC(O)CNC(C)C)c(C(C)=O)c1` (stereo not drawn) is reported as over 10 µM.
